Measured values gathered from unrelated publications.
Each numbered part is a random draw from the data of one study; scales do not carry over between parts.

Series 1
Target: Prothrombin, mature alpha-thrombin (F2, Homo sapiens, UniProt P00734)
Technique: aptamer microarray, sandwich
Molecule type: DNA with 2'F-ANA
Sample: in vitro
Tested at: 200 nM
Notes: whole 15-mer aptamer, many near background
With: Cy3 exosite-II aptamer, 400 nM
Direction: higher = stronger binding
Oligonucleotide: GGTTGGTGTGGTTGG
Modification	mean fluorescence intensity [a.u.]
2'F-ANA at 1 2 3 5 7 11 12 13	75.3
2'F-ANA at 1 5 6 7 8 12 14 15	50.4
2'F-ANA at 1 2 3 4 6 8 9 13 14	54.6
2'F-ANA at 1 2 4 8 11 13 14	52.9
2'F-ANA at 6 7 10 13 15	132
2'F-ANA at 1 2 4 5 6 7 9 11 12 13 14	49.5
2'F-ANA at 1 2 4 6 8 9 15	134
2'F-ANA at 1 2 3 4 8 11 14	70.4
2'F-ANA at 1 2 3 4 6 7 8 13 15	124
2'F-ANA at 1 2 3 7 12 14 15	119
2'F-ANA at 1 2 4 5 7 8 10 14 15	49.7
2'F-ANA at 2 3 5 10 11 13 15	71.4
2'F-ANA at 3 4 7 8 9 10 14	264
2'F-ANA at 1 3 4 6 8 11 13 14 15	66.7
2'F-ANA at 2 3 4 5 6 7 8 10 11 13	69.5
2'F-ANA at 1 2 3 7 12 13 14 15	158
2'F-ANA at 5 6 10 11 14	44.4
2'F-ANA at 3 4 5 7 12 14 15	62.9
2'F-ANA at 2 3 4 5 6 9 12 13 14 15	51.1
2'F-ANA at 1 5 6 7 8 9 10 11 15	50.7
2'F-ANA at 1 3 6 8 10 13 14	58.9
2'F-ANA at 2 4 5 6 12 13 15	90.9
2'F-ANA at 1 2 4 5 8 9 11 14	45.6
2'F-ANA at 1 2 3 5 6 9 12 15	124
2'F-ANA at 1 3 4 7 10 11 12	92

Series 2
Target: RNA binding protein fox-1 homolog 2, RRM domain, GST-SBP tag (RBFOX2, Homo sapiens, UniProt O43251-10, residues 100-194)
Technique: RNA Bind-n-Seq
Molecule type: RNA
Sample: in vitro
Tested at: 365 nM
Notes: natural RNA segment, single round, ends assumed
Baseline: no-protein control
Direction: higher = stronger binding
Target sequence (chain): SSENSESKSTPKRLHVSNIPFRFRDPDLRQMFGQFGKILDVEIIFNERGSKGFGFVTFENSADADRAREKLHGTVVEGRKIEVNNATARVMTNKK
Oligonucleotide	RBNS enrichment (R)
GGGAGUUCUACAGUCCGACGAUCUAACAUACAGGCAUGGGAAUCCUGCCUCUUAGCUUUUCCCACCCUCUUGUCUCACCAAGUUUUUUCUCUCCAAAGGUUUCCAGGAAUUUCUCAUUAAUGGCUGAUGCAAAUGGAAUUCUCGGGUGCCAA	0.381
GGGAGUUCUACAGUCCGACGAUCCUCUGAGAGCCCUCGCGUCCCAGGCCCCAGCCAGGGGGCCGGCCUUGUCCCGCCUCAUCCACAGAAAGGGAGGAUGGGCGAUGACAGUUGUUUCUAUGCCUUCUGACCCAUGGAAUUCUCGGGUGCCAA	0.627
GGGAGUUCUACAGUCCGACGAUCCGUCCCCCACCCUGCGGGACAGUGAACUGUGCAUAAGUCAGCGGAGGGCGACGACCCUCGCCGCGGGACCCGGGACUCGAGCCCGGGACUUCGCAGCUACAGCACAUCUAUGGAAUUCUCGGGUGCCAA	0.188
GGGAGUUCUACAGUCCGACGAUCCCCUCCCCUUGUUACAGAUGGCGUAGAAGUCACAAGUCUGUUAAUUGGACUGUUGCUUCUUUGCCUGUUCCUGCUUUCUCUUUCUGUCUGGAUAGUCAGGAAAAGAUUUAUGGAAUUCUCGGGUGCCAA	0.202
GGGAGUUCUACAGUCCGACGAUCCUCUGUUUUGUGGACAGGCAGCAGCCUCCGUAGGCACCCGCACCCUGCCUUGCUGGAGGAGAUGGGAUGGGGCGGGAGGUGGCUUCACCAUAACUAUUUUUAAUAUGGGUUGGAAUUCUCGGGUGCCAA	0.412
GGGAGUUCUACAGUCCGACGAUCUUGUUUUAGCAACUGAAAAUUGUACUUGGUCACUUUUGUGCUUGAGGAGGCCCAUUUUCUGCCUGGCAGGGGGCAGGUCUGUGCCCUCCCGCUGACUCCUGCUGUGUCCUUGGAAUUCUCGGGUGCCAA	0.601
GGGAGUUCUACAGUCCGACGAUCGAAUAAAACAACUGCCUGAUUCUAGGGUUUUCCAUUAAUAGACAGCCAUUGUUCUCUCUGGACCACAGCCUGGAAGCUACUCUAAUUCCCUUUUUCUACAUAUGUGUAGAUGGAAUUCUCGGGUGCCAA	0.363
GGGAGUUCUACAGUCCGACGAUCGUCUGGUGAAAAAAAGAAAAACAAAUUGGAAGAGAGGACCAUGAGAAUUUUAAUAAAACAGAAGGAAACUAAUGGACCUUCCAGGAUUUAUUGUGGACGGAUGUGGAUAUUGGAAUUCUCGGGUGCCAA	1.11
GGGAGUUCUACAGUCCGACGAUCGUCCAGAGACAGGUCUCAUGUGACACUGGACAACCCUGCCAUCACUAGCAUGUGAACCUGGUCCUAGUUGGAAACUCACCCAGCCUACCUUAGUACUAGUGUUUCCUACUUGGAAUUCUCGGGUGCCAA	0.593

Series 3
Target: Histone acetyltransferase KAT6A, both winged helices, GST fusion (KAT6A, Homo sapiens, UniProt Q92794, residues 1-181)
Technique: protein binding microarray
Molecule type: double-stranded DNA, one strand shown
Sample: in vitro
Tested at: not given
Notes: 8-mer, flanks averaged, mean of 2 arrays, mostly near background
Baseline: not given
Direction: higher = stronger binding
Construct (chain): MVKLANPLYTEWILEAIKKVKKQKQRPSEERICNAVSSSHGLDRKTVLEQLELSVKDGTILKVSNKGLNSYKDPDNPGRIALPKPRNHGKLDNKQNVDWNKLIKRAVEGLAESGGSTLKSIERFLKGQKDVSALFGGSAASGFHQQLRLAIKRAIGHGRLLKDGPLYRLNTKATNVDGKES
Oligonucleotide	E-score
GATACGCC	0.152
CGGGGATA	0.113
CCCGCCCG	0.349
CAATAAGA	-0.183
ACTGGACA	-0.114
CCGGCATC	0.264
CCACTCCG	0.245
GATTTTTA	-0.0538
ATGATCAT	0.0901
TAGTGGGA	-0.283
AGCCATTC	-0.197
GATGGGGC	-0.143
TGAATCAA	0.0357
GCAGTGAA	0.0553
GCCCTCGA	-0.138
GCACTATA	0.0848
GGAATTTA	-0.00356
CCCAAAGG	-0.103
ATGGGAAA	-0.152
TGCGTAAA	0.169

Series 4
Target: RING finger protein unkempt homolog, zinc fingers 1-6, GST-SBP tag (UNK, Homo sapiens, UniProt Q9C0B0, residues 30-357)
Technique: RNA Bind-n-Seq
Molecule type: RNA
Sample: in vitro
Tested at: not given
Notes: RNA with constant flanks, human-mouse chimeric sites, ends assumed
Baseline: input RNA pool
Direction: higher = stronger binding
Construct (chain): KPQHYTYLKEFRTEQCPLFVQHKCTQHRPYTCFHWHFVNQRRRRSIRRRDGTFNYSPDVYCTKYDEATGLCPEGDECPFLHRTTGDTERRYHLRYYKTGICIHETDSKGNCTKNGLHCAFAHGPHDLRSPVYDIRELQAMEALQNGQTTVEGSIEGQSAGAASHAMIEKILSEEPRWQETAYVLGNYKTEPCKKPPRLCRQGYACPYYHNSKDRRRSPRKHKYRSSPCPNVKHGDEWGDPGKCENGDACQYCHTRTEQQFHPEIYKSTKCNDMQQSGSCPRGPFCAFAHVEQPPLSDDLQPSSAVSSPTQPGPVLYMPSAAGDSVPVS
Oligonucleotide	bound/input enrichment
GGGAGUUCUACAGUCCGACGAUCAUUGUUGAAGCGAAUCCACUUUUAGAAGCAUUUGGAAAUGCAAAGACUGUUCGCAACAAUAAUAGCAGUCGAUUUGGAAAAUUUGUAGAAAUUCAUUUUAAUGAAAAGAGCUCAGUUGUUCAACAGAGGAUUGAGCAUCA	0.683 ratio
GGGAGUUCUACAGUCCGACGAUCGCGGCAGAAUCAUGGAGGACAUAAUGCAGCUCCCCAAAGCGCGCGUCAACGCCGGCAUGUUACCACAGUAUAUCGACCGGCCCGUGUGCUUCGUAGGGAAGCUGGAAAAGAUUCAUCCCACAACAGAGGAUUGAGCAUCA	0.0943 ratio
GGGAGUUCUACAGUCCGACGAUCUCUGGUCAUACUCGUGCGUAUGGUGUUUGCUUUGUGGACACUUCACUGGGCAAGUUUUUCAUCGGCCAGUUUUCGGAUGACCGCCACUGUUCCAGAUUUAGGACUCUAGUGGCUCACUAUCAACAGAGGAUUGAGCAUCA	0.128 ratio
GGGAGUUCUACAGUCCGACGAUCAAAUCGUGUGUGUCAAAUAUUGAAAGUGCUUUAUCUACACUCCAGUAUGUAAGCAGUAUAGUAGUUUCUUUAGAGAAUAGGUCAGCCAUUGUAAAGUACAAUGCAAGCUCAGUCACUCCACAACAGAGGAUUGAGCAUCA	36.6 ratio
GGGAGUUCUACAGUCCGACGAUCCGCAGAAGGUUAAAGGGUGAGAGUGGGGUGGAAGACUGUGUCAUGGCUCUGGAGACACUGUUCAGUGUCCUGCUUUCUCUGUGCAGACUGAUGGCCCCUUACACGCCUUUUCUCACUGAGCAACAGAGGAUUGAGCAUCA	0.0692 ratio
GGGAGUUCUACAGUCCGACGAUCCAGCUGCAGACAGAAAAGGAUGAAAAGGAGCUGUAUAAGGUACAUUUGAAGAAUACAGAAAUAGAAAAUACGAAGCUUGUGUCAGAGAUACAGACUUUAAAAAAUUUAGAUGGAAACAAACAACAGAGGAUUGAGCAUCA	4.48 ratio
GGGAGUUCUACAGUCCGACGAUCUCAUUUUUCUCUUUUCUUUCUUUCCUUUAGGAAAAGCCUAAAGAUUAGGUUGUAAGAAAAACAGAAGCCAUGUUUCGAAGACCUGUAUUACAGGUACUUCGUCAGUUUGUAAGACAUGAGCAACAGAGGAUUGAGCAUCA	0.208 ratio
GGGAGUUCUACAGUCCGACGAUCUGUAGUUUCUUGAUUUAUCAUUUUUCUCUUUUCUUUCUUUCCUUUAGGAAAAGCCUAAAGAUUAGGUUGUAAGAAAAGAAAAUAGAAGCCAUGUUUCACCUGUGUUACAGGUAUUUCGUCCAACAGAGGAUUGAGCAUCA	0.448 ratio

Repeated from above (series 2):
Oligonucleotide	RBNS enrichment (R)
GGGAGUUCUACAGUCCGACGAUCCUCUGAGAGCCCUCGCGUCCCAGGCCCCAGCCAGGGGGCCGGCCUUGUCCCGCCUCAUCCACAGAAAGGGAGGAUGGGCGAUGACAGUUGUUUCUAUGCCUUCUGACCCAUGGAAUUCUCGGGUGCCAA	0.627
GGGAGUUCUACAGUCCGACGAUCCGUCCCCCACCCUGCGGGACAGUGAACUGUGCAUAAGUCAGCGGAGGGCGACGACCCUCGCCGCGGGACCCGGGACUCGAGCCCGGGACUUCGCAGCUACAGCACAUCUAUGGAAUUCUCGGGUGCCAA	0.188
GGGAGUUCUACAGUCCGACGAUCCCCUCCCCUUGUUACAGAUGGCGUAGAAGUCACAAGUCUGUUAAUUGGACUGUUGCUUCUUUGCCUGUUCCUGCUUUCUCUUUCUGUCUGGAUAGUCAGGAAAAGAUUUAUGGAAUUCUCGGGUGCCAA	0.202
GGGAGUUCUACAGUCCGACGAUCCUCUGUUUUGUGGACAGGCAGCAGCCUCCGUAGGCACCCGCACCCUGCCUUGCUGGAGGAGAUGGGAUGGGGCGGGAGGUGGCUUCACCAUAACUAUUUUUAAUAUGGGUUGGAAUUCUCGGGUGCCAA	0.412
